Assay results pooled from the literature.
A part holds a random share of what one study measured. Changes are numbered by the printed parent chain.
UniProt P37023, sequence (whole entry, looked up): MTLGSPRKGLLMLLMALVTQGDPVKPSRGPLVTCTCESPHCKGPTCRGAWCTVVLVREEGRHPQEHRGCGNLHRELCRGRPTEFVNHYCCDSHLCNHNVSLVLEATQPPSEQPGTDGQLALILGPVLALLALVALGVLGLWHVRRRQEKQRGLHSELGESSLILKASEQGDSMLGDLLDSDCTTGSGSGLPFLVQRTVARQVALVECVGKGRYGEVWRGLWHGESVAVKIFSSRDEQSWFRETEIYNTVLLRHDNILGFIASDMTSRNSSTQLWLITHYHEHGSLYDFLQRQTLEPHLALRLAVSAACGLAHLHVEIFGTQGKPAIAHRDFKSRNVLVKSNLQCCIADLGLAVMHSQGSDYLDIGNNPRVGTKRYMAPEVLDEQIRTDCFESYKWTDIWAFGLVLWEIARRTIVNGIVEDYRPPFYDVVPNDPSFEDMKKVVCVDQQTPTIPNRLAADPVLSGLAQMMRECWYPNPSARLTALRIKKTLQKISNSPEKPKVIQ

Study 1
Target: CRIPT, C-terminal peptide
Technique: DHFR complementation, deep sequencing
Sample: yeast
Setting: single substitutions, model-inferred values
Relative to: wild type
Reading: higher = weaker binding
Parent: ERBIN, PDZ domain 1 (human); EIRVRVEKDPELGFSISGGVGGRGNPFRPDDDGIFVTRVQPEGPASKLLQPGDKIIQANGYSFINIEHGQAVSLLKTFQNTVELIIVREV; partner TKNYKQTSV
Variant | binding free energy change [kcal/mol]
K47Y | 0.208
I64H | 0.017
I16R | 0.472
V72Y | 1.32
Q70V | 0.00426
G18W | 0.79
G24C | 0.952
V36P | 0.995

Study 2
Target: Centromere-binding protein 1, full length, N-terminal tag (CBF1, Saccharomyces cerevisiae, UniProt P17106, residues 1-351)
UniProt P17106, sequence (whole entry, looked up): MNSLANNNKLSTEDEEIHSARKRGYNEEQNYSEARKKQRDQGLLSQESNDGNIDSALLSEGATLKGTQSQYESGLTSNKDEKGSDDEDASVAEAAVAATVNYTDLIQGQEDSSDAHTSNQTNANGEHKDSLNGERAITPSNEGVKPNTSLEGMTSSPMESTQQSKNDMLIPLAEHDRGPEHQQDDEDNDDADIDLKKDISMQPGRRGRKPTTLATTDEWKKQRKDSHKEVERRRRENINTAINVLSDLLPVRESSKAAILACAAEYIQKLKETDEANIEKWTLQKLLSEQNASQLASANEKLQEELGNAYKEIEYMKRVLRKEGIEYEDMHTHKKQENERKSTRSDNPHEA
Technique: protein-binding microarray
Form: double-stranded DNA, one strand shown
Sample: in vitro
Concentration: 0.8 µM
Setting: whole 60-bp probe, no competitor
Reading: higher = stronger binding
Sequence | fluorescence intensity [a.u.]
GAATAGTTAATTAGTGATCATATGAAGTAATCATAGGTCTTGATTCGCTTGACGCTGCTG | 821
CTATTCGGAGAATCTCACATGCCACTGAAGATTTTCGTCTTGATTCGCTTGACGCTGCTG | 582
TGTACGAAGCTATTAGACGTGGTTATAGTAGTTAGGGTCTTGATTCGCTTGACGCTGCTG | 544
GAAGTAACCTTCAATGATGTCACGAAACACGGATAGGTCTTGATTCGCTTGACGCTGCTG | 603
CTAAAACCCAAGCGCTATGATCACAAACGGCGATTCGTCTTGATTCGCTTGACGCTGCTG | 515
GAATTCACTGTACATCACGGGTCCGCCTGGCACTAGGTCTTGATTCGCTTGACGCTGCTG | 907
CTATCTTGTGGTTGTGGTGGTGCGTGTGAGCAGTTCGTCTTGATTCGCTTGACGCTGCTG | 655
CTAGTAATCGTTCATGTGGCAACTGTTTCAGTATTCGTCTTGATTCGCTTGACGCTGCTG | 534

Study 3
Target: CCNB2, cyclin fold, Cln2 fusion (human)
Technique: yeast growth competition, sequencing
Sample: yeast
Setting: weak parent motif
Relative to: not given
Reading: higher = stronger binding
Parent: PKN2 docking peptide (human); VSAVQKLDFSDTM
Variant | normalised enrichment score
VSAVQKADFSDTM [L7A] | -0.161
VSAVQKLDFFDTM [S10F] | -0.278
VSAVQKPDFSDTM [L7P] | -0.505
VSAVQKLDSSDTM [F9S] | 0.204
VSHVQKLDFSDTM [A3H] | 0.178
VSAVQKLDRSDTM [F9R] | 0.397
VSAVQKLDFMDTM [S10M] | -0.261
VSAVQKLDFSITM [D11I] | -0.625

Mixed results
Structure (SMILES) | target | test | conditions | measurement | value
CO[C@H]1CC[C@H](CNc2ccc(S(=O)(=O)NC(=O)c3ccc(N4CCN(CC5=C(c6ccc(Cl)cc6)CC(C)(C)CC5)CC4)cc3Oc3cnc4[nH]ccc4c3)cc2[N+](=O)[O-])CC1 | Activin receptor type-1-like (ACVRL1, Homo sapiens, UniProt P37023) | cell-free assay, competition with immobilised ligand | 1 µM | remaining binding | 72%

A few entries again (study 1):
Variant | binding free energy change [kcal/mol]
G24C | 0.952
V36P | 0.995
